Measurements pooled from the literature.
Method: steady-state kinetics
B1: enzyme (Rattus norvegicus, UniProt P06757); chain STAGKVIKCKAAVLWEPHKPFTIEDIEVAPPKAHEVRIKMVATGVCRSDDHAVSGSLFTPLPAVLGHEGAGIVESIGEGVTCVKPGDKVIPLFSPQCGKCRICKHPESNLCCQTKNLTQPKGALLDGTSRFSCRGKPIHHFISTSTFSQYTVVDDIAVAKIDAAAPLDKVCLIGCGFSTGYGSAVQVAKVTPGSTCAVFGLGGVGLSVVIGCKTAGAAKIIAVDINKDKFAKAKELGATDCINPQDYTKPIQEVLQEMTDGGVDFSFEVIGRLDTMTSALLSCHSACGVSVIVGVPPSAQSLSVNPMSLLLGRTWKGAIFGGFKSKDAVPKLVADFMAKKFPLEPLITHVLPFEKINEAFDLLRAGKSIRTVLTF
B2: UGT3A2 Y474C (Homo sapiens, UniProt Q3SY77); chain AKILTISTVGGSHYLLMDRVSQILQDHGHNVTMLNHKRGPFMPDFKKEEKSYQVISWLAPEDHQREFKKSFDFFLEETLGGRGKFENLLNVLEYLALQCSHFLNRKDIMDSLKNENFDMVIVETFDYCPFLIAEKLGKPFVAILSTSFGSLEFGLPIPLSYVPVFRSLLTDHMDFWGRVKNFLMFFSFCRRQQHMQSTFDNTIKEHFTEGSRPVLSHLLLKAELWFINSDFAFDFARPLLPNTVYVGGLMEKPIKPVPQDLENFIAKFGDSGFVLVTLGSMVNTCQNPEIFKEMNNAFAHLPQGVIWKCQCSHWPKDVHLAANVKIVDWLPQSDLLAHPSIRLFVTHGGQNSIMEAIQHGVPMVGIPLFGDQPENMVRVEAKKFGVSIQLKKLKAETLALKMKQIMEDKRYKSAAVAASVILRSHPLSPTQRLVGWIDHVLQTGGATHLKPCVFQQPWHEQYLLDVFVFLLGLTLGTLWLCGKLLGMAVWWLRGARKVKET
B3: sacB Y196F/Y247F (Priestia megaterium, UniProt D5DC07); chain KGNDSKDFNNSYGISHITRDNMVKIPQQQNSDQFKVPAFDESTIKNIASAKGKNASGNTIDLDVWDSWPLQNADGTVATYHGYQIVFALAGDPKDSNDTSVYLFYKKAGDKSIDSWKNAGRVFKDSDKFVPNDPHLKNQTQEWSGSGTLTKDGKVRLFYTDYSGKQFGKQTLTTAQVNMSQPNDNTLKVDGVEDYKSIFDGDGKIYQTVQQFIDEGGFDTGDNHTLRDPHYIEDNGHKYLVFEANTGTEDGYQGEDSLYNRAYYGGNNPFFQSEKKKLLEGSNKEKASLANGALGIIELNDDYTLKKVMKPLITSNTVTDEIERANIFKKDGKWYLFTDSRGSKMTIDGIGQDDVYMLGYVSNTLTGKYKPLNDTGLVLHMDLDPNDKTFTYSHFAVPQTKGDNVVITSYMTNRGFYEDNHSTFAPSFLVNIDGSKTSVVKDRVLEQGQLTVDED
B4: Saccharopine reductase (Saccharomyces cerevisiae, UniProt P38999); chain MGKNVLLLGSGFVAQPVIDTLAANDDINVTVACRTLANAQALAKPSGSKAISLDVTDDSALDKVLADNDVVISLIPYTFHPNVVKSAIRTKTDVVTSSYISPALRELEPEIVKAGITVMNEIGLDPGIDHLYAVKTIDEVHRAGGKLKSFLSYCGGLPAPEDSDNPLGYKFSWSSRGVLLALRNSAKYWKDGKIETVSSEDLMATAKPYFIYPGYAFVCYPNRDSTLFKDLYHIPEAETVIRGTLRYQGFPEFVKALVDMGMLKDDANEIFSKPIAWNEALKQYLGAKSTSKEDLIASIDSKATWKDDEDRERILSGFAWLGLFSDAKITPRGNALDTLCARLEELMQYEDNERDMVVLQHKFGIEWADGTTETRTSTLVDYGKVGGYSSMAATVGYPVAIATKFVLDGTIKGPGLLAPYSPEINDPIMKELKDKYGIYLKEKTVA
B5: COMT (Canis lupus familiaris, UniProt Q60F99); chain MGDTKEQRILRHVLQHAVAGDPQSVLEAIDTYCSQKEWAMNVGDKKGQILDAVVREQRPSVLLELGAYCGYSAVRMARLLEPGARLITIELNPDFAAITQQMLDFAGLQDRVTILTGASQDTIPELKKKHDVDTLDMVFLDHWKDRYLPDTLLLEECGLLQKGTVLLADNVICPGTPEFLAYVRGNNRFECTHFPSYLEYSKRVDGLEKVVYKGPGSPTQP
B6: enzyme (Saccharomyces cerevisiae, UniProt P42826); chain MLCSVIQRQTREVSNTMSLDSYYLGFDLSTQQLKCLAINQDLKIVHSETVEFEKDLPHYHTKKGVYIHGDTIECPVAMWLEALDLVLSKYREAKFPLNKVMAVSGSCQQHGSVYWSSQAESLLEQLNKKPEKDLLHYVSSVAFARQTAPNWQDHSTAKQCQEFEECIGGPEKMAQLTGSRAHFRFTGPQILKIAQLEPEAYEKTKTISLVSNFLTSILVGHLVELEEADACGMNLYDIRERKFSDELLHLIDSSSKDKTIRQKLMRAPMKNLIAGTICKYFIEKYGFNTNCKVSPMTGDNLATICSLPLRKNDVLVSLGTSTTVLLVTDKYHPSPNYHLFIHPTLPNHYMGMICYCNGSLARERIRDELNKERENNYEKTNDWTLFNQAVLDDSESSENELGVYFPLGEIVPSVKAINKRVIFNPKTGMIEREVAKFKDKRHDAKNIVESQALSCRVRISPLLSDSNASSQQRLNEDTIVKFDYDESPLRDYLNKRPERTFFVGGASKNDAIVKKFAQVIGATKGNFRLETPNSCALGGCYKAMWSLLYDSNKIAVPFDKFLNDNFPWHVMESISDVDNENWDRYNSKIVPLSELEKTLI
B7: GDP-perosamine synthase (Caulobacter vibrioides, UniProt Q9A9H3); chain MSDLPRISVAAPRLDGNERDYVLECMDTTWISSVGRFIVEFEKAFADYCGVKHAIACNNGTTALHLALVAMGIGPGDEVIVPSLTYIASANSVTYCGATPVLVDNDPRTFNLDAAKLEALITPRTKAIMPVHLYGQICDMDPILEVARRHNLLVIEDAAEAVGATYRGKKSGSLGDCATFSFFGNKIITTGEGGMITTNDDDLAAKMRLLRGQGMDPNRRYWFPIVGFNYRMTNIQAAIGLAQLERVDEHLAARERVVGWYEQKLARLGNRVTKPHVALTGRHVFWMYTVRLGEGLSTTRDQVIKDLDALGIESRPVFHPMHIMPPYAHLATDDLKIAEACGVDGLNLPTHAGLTEADIDRVIAALDQVLV
B8: CstB (Staphylococcus aureus, UniProt G5ELA4); chain MFFKQFYDNHLSQASYLVGCQRTGEAIIIDPVRDLSKYIEVADSEGLTITQATETHIHADFASGIRDVAKRLNANIYVSGEGEDALGYKNMPSKTQFVKHGDIIQVGNVKLEVLHTPGHTPESISFLLTDLGGGSSVPMGLFSGDFIFVGDIGRPDLLEKSVQIKGSTEISAKQMYESVQNIKNLPDYVQIWPGHGAGSPCGKALGAIPISTIGYEKINNWAFNEIDETKFIESLTSNQPAPPHHFAQMKQVNQFGMNLYQSYDVYPSLDNKRVAFDLRSKEAFHGGHTKGTINIPYNKNFINQIGWYLDFEKDIDLIGDKSTVEKAKHTLQLIGFDKVAGYRLPKSGISTQSVHSADMTGKEEHVLDVRNDEEWNNGHLDQAVNIPHGKLLNENIPFNKEDKIYVHCQSGVRSSIAVGILESKGFENVVNIREGYQDFPESLK
Sequence of UniProt Q99518 (whole entry, looked up): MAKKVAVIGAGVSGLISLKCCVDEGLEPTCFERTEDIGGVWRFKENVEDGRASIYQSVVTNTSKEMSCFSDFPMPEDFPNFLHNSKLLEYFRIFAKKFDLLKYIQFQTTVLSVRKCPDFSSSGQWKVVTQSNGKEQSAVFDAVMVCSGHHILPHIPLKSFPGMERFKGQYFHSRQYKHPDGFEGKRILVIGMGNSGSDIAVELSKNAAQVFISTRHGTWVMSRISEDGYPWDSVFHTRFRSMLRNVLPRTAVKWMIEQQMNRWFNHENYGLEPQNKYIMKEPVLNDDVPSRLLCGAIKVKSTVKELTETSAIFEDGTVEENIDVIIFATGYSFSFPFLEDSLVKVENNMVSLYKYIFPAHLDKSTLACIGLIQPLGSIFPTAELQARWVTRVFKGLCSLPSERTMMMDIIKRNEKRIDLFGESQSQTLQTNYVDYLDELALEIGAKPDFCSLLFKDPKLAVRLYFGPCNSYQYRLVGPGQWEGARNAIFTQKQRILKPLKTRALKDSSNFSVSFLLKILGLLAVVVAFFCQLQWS
Sequence of UniProt Q15JG1 (whole entry, looked up): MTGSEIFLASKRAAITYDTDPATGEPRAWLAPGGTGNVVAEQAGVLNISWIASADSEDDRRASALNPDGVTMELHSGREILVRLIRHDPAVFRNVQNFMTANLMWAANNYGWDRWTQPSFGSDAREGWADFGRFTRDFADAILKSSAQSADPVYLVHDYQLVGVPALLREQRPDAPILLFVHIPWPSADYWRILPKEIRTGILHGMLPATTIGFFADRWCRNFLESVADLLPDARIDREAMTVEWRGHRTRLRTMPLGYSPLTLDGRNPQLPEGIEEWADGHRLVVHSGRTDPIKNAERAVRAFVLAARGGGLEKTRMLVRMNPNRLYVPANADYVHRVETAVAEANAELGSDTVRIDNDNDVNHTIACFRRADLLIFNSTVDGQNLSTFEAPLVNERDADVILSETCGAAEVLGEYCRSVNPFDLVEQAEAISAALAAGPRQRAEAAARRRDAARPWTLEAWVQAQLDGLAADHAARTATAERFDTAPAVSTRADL
Sequence of UniProt P12081 (whole entry, looked up): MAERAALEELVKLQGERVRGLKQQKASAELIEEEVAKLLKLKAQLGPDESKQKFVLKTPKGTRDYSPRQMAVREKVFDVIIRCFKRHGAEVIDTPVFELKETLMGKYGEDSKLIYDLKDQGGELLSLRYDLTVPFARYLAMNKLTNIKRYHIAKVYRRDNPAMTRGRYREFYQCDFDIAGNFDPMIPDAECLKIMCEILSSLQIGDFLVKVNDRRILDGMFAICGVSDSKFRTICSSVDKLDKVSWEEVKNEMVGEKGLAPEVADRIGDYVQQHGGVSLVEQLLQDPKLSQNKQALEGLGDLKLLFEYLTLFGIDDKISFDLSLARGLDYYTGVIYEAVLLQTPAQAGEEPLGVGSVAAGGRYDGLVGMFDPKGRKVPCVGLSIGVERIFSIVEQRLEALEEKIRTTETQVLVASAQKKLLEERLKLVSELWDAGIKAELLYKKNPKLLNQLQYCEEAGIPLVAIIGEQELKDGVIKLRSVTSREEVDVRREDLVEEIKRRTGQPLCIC
Sequence of UniProt P05164 (whole entry, looked up): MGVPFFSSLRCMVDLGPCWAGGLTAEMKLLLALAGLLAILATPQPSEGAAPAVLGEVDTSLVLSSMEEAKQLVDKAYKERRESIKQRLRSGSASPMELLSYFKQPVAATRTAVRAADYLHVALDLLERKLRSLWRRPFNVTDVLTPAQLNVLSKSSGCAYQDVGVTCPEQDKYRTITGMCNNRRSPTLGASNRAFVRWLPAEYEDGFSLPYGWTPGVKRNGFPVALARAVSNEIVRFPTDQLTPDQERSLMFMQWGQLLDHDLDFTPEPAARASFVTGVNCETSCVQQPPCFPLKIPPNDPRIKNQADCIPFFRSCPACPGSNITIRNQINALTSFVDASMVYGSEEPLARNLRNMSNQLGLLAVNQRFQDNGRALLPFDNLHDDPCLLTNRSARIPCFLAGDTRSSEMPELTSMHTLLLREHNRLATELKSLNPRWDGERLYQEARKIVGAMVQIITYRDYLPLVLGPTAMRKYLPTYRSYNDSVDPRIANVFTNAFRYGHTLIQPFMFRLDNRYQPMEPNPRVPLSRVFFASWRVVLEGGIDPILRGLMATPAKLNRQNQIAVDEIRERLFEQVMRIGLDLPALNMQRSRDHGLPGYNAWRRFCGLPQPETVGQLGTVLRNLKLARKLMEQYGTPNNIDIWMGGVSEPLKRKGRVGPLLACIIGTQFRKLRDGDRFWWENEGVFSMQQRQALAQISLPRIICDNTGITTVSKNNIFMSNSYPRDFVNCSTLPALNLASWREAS

Molecule = B1 (enzyme); substrate = OC1CCCC1; pH = pH 7.3; temperature = 37 °C; Km = 320 µM
Molecule = B2 (UGT3A2 Y474C); substrate = O=c1ccn([C@@H]2O[C@H](CO[P@@](=O)(O)O[P@@](=O)(O)O[C@H]3O[C@H](CO)[C@@H](O)[C@H](O)[C@H]3O)[C@@H](O)[C@H]2O)c(=O)[nH]1; pH = pH 7.4; temperature = 37 °C; notes = not purified; added = 1-OH-pyrene 16 µM, MgCl2 10 mM, alamethicin; Km = 3130 µM
Molecule = vldE (Streptomyces hygroscopicus, UniProt Q15JG1); substrate = Nc1nc2c(ncn2[C@@H]2O[C@H](COP(=O)(O)OP(=O)(O)O[C@H]3C=C(CO)[C@@H](O)[C@H](O)[C@H]3O)[C@@H](O)[C@H]2O)c(=O)[nH]1; pH = pH 7.5; notes = apparent, donor made in situ; added = validamine 7-phosphate 1 mM; Km = 59.7 µM
Molecule = B3 (sacB Y196F/Y247F); substrate = OC[C@H]1O[C@@](CO)(O[C@H]2O[C@H](CO)[C@@H](O)[C@H](O)[C@H]2O)[C@@H](O)[C@@H]1O; pH = pH 6.9; Km = 16700 µM
Molecule = B4 (Saccharopine reductase); substrate = NC(=O)c1ccc[n+]([C@@H]2O[C@H](COP(=O)(O)OP(=O)(O)OC[C@H]3O[C@@H](n4cnc5c(N)ncnc54)[C@H](OP(=O)(O)O)[C@@H]3O)[C@@H](O)[C@H]2O)c1; pH = pH 9; temperature = 25 °C; added = saccharopine; Km = 150 µM
Molecule = MPO (Homo sapiens, UniProt P05164); substrate = CC(=O)N1c2ccc(O)cc2Oc2cc(O)ccc21; temperature = 25 °C; notes = stopped-flow, integrated fit; Km = 39 µM
Molecule = B5 (COMT); substrate = O=c1oc2c(O)c(O)ccc2cc1-c1nc2ccccc2s1; medium = dog liver S9; pH = pH 7.4; temperature = 37 °C; Km = 1.1 µM
Molecule = B6 (enzyme); substrate = O=C(CO)[C@@H](O)[C@H](O)CO; pH = pH 7.4; temperature = 30 °C; Km = 210 µM
Molecule = B7 (GDP-perosamine synthase); substrate = C[C@H]1O[C@H](OP(=O)(O)OP(=O)(O)OC[C@H]2O[C@@H](n3cnc4c(=O)[nH]c(N)nc43)[C@H](O)[C@@H]2O)[C@@H](O)[C@@H](O)C1=O; pH = pH 7.5; temperature = room temperature; notes = NaCl 110 mM, ping-pong fit; added = L-glutamate cosubstrate; 100 µM PLP; Km = 13 µM
Molecule = B8 (CstB); substrate = N[C@@H](CSS)C(=O)N[C@H]1[C@@H](O[C@@H](CC(=O)O)C(=O)O)O[C@H](CO)[C@@H](O)[C@@H]1O; pH = pH 6; temperature = 25 °C; notes = NaBr 100 mM, air-saturated; added = Fe(II), O2; Km = 1800 µM
Molecule = enzyme (Homo sapiens, UniProt Q99518); substrate = CN(C)CCCOc1nn(Cc2ccccc2)c2ccccc12; temperature = 37 °C; notes = not purified; Km = 440 µM
Molecule = HARS1 (Homo sapiens, UniProt P12081); substrate = Nc1ncnc2c1ncn2[C@@H]1O[C@H](COP(=O)(O)OP(=O)(O)OP(=O)(O)O)[C@@H](O)[C@H]1O; pH = pH 7.5; added = histidine, tRNAHis 5 µM, MgCl2 10 mM, KCl 150 mM; Km = 44.2 µM

A few entries again:
Molecule = B2 (UGT3A2 Y474C); substrate = O=c1ccn([C@@H]2O[C@H](CO[P@@](=O)(O)O[P@@](=O)(O)O[C@H]3O[C@H](CO)[C@@H](O)[C@H](O)[C@H]3O)[C@@H](O)[C@H]2O)c(=O)[nH]1; pH = pH 7.4; temperature = 37 °C; notes = not purified; added = 1-OH-pyrene 16 µM, MgCl2 10 mM, alamethicin; Km = 3130 µM
Molecule = vldE (Streptomyces hygroscopicus, UniProt Q15JG1); substrate = Nc1nc2c(ncn2[C@@H]2O[C@H](COP(=O)(O)OP(=O)(O)O[C@H]3C=C(CO)[C@@H](O)[C@H](O)[C@H]3O)[C@@H](O)[C@H]2O)c(=O)[nH]1; pH = pH 7.5; notes = apparent, donor made in situ; added = validamine 7-phosphate 1 mM; Km = 59.7 µM
